# Measured values of several laboratories.
# Compare with care: the assays were run in different laboratories. ± gives the spread as reported.
# 60 kDa heat shock protein, mitochondrial with HSP10: 60 kDa heat shock protein, mitochondrial, with HSP10 (Homo sapiens, UniProt P10809)
# UniProt P10809, sequence (whole entry, looked up): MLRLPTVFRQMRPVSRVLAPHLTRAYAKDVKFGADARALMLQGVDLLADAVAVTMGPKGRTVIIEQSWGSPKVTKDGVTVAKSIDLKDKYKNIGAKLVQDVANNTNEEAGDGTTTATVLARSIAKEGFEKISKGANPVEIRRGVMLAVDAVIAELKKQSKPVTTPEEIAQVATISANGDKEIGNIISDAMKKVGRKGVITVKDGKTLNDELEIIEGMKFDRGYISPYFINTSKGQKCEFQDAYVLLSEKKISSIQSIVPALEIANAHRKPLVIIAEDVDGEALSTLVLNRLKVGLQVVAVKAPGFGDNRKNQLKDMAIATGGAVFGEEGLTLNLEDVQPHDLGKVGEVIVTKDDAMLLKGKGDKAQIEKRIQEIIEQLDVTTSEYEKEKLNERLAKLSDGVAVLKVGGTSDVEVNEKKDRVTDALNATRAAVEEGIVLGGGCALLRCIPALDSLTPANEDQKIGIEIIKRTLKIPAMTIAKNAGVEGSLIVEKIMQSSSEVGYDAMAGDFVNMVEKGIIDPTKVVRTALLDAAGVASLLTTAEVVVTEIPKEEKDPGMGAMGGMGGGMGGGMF
# Gria2/Glutamate receptor 3: Gria2/Glutamate receptor 3 (Rattus norvegicus, UniProt P19491+P19492)
# UniProt P19491, sequence (whole entry, looked up): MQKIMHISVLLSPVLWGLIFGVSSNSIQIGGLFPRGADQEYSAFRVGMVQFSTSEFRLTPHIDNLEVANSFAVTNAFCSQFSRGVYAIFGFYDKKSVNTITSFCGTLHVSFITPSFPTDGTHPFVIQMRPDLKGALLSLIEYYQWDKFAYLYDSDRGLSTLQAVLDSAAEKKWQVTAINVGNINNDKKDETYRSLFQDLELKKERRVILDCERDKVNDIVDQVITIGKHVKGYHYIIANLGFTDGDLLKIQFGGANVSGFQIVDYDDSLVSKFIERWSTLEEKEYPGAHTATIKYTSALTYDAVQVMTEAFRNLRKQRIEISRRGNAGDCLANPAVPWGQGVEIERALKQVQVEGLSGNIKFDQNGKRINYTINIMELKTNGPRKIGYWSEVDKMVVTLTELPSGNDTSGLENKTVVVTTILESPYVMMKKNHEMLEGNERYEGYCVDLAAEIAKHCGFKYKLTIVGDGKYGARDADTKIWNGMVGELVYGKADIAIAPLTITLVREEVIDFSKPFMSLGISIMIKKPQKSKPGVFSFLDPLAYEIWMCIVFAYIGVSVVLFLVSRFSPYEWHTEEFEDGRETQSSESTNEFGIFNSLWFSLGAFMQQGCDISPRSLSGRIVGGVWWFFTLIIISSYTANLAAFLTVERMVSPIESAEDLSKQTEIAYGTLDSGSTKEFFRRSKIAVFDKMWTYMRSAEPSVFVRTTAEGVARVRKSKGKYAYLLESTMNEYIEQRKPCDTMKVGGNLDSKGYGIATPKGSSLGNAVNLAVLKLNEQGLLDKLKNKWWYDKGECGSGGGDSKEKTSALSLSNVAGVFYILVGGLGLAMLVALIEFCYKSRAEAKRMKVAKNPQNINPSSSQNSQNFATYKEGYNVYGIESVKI
# UniProt P19492, sequence (whole entry, looked up): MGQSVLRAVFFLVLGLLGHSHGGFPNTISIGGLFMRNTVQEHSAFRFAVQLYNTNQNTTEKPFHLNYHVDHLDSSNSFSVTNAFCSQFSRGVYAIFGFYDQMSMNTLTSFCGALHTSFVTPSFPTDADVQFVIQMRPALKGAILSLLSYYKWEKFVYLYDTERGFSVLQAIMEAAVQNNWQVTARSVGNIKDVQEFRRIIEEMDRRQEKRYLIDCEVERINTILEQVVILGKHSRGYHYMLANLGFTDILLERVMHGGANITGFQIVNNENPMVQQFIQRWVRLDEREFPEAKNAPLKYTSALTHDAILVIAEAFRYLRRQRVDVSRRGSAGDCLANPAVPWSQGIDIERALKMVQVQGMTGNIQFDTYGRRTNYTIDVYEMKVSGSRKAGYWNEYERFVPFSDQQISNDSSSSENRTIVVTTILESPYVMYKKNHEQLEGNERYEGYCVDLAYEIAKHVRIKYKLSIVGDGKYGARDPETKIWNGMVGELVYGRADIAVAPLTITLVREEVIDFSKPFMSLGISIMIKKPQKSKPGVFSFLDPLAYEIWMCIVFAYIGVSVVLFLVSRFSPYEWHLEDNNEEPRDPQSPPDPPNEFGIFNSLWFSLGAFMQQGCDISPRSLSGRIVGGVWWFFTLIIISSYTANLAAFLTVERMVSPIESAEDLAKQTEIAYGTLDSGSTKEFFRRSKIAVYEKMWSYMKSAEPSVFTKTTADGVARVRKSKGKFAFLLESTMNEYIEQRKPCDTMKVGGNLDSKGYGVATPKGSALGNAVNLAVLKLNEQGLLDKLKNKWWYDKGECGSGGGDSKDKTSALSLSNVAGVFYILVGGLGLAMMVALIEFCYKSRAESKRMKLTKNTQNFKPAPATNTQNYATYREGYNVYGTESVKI
# CES1: Liver carboxylesterase 1 (CES1, Homo sapiens, UniProt P23141)
# UniProt P23141, sequence (whole entry, looked up): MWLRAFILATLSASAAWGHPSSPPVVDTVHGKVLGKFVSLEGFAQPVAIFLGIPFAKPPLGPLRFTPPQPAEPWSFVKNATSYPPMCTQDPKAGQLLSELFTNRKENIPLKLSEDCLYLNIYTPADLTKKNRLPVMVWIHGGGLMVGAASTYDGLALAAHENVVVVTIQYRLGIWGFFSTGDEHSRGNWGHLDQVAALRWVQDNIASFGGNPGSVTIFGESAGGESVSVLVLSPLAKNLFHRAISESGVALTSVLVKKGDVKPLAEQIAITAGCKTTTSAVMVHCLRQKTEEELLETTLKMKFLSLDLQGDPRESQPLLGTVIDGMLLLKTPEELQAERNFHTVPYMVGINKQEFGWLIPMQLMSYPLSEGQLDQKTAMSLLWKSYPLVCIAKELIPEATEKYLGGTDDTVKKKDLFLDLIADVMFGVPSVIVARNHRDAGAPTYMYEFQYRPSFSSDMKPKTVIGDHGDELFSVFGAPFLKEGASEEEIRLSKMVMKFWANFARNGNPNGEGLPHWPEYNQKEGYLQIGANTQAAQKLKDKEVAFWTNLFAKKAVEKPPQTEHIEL
# PIK3CA: Phosphatidylinositol 4,5-bisphosphate 3-kinase catalytic subunit alpha isoform (PIK3CA, Homo sapiens, UniProt P42336)
# UniProt P42336, sequence (whole entry, looked up): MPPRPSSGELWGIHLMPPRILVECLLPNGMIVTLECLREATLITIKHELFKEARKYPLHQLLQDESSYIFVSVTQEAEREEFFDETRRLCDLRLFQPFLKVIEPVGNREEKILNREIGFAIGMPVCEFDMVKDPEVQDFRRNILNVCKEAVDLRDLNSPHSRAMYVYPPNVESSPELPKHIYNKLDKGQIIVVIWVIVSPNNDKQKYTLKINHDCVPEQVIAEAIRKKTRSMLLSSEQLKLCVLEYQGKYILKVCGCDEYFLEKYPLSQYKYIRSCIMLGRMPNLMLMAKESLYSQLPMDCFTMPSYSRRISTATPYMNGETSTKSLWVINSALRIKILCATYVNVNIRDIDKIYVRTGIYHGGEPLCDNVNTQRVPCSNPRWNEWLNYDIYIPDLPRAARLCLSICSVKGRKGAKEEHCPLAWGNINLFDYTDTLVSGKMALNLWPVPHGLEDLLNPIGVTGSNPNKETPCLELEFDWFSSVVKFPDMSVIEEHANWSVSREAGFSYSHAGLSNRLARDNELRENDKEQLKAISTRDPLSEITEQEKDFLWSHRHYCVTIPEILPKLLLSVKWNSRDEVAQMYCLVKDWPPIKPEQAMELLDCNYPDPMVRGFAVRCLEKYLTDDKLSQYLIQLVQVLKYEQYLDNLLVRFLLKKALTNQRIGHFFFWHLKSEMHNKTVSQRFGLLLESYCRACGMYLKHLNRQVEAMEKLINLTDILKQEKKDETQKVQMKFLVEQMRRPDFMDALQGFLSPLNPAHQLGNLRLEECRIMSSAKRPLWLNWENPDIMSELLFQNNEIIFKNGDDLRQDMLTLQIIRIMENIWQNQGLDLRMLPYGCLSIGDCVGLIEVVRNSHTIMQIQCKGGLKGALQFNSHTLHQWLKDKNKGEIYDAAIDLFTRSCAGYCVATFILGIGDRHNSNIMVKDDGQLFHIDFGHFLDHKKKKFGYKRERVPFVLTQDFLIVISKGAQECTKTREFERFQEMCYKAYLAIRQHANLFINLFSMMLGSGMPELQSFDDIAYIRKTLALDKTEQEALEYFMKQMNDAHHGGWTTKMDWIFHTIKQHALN
# IDO1: Indoleamine 2,3-dioxygenase 1 (IDO1, Homo sapiens, UniProt P14902)
# HDAC7: Histone deacetylase 7 (HDAC7, Homo sapiens, UniProt Q8WUI4)
# UniProt Q8WUI4, sequence (whole entry, looked up): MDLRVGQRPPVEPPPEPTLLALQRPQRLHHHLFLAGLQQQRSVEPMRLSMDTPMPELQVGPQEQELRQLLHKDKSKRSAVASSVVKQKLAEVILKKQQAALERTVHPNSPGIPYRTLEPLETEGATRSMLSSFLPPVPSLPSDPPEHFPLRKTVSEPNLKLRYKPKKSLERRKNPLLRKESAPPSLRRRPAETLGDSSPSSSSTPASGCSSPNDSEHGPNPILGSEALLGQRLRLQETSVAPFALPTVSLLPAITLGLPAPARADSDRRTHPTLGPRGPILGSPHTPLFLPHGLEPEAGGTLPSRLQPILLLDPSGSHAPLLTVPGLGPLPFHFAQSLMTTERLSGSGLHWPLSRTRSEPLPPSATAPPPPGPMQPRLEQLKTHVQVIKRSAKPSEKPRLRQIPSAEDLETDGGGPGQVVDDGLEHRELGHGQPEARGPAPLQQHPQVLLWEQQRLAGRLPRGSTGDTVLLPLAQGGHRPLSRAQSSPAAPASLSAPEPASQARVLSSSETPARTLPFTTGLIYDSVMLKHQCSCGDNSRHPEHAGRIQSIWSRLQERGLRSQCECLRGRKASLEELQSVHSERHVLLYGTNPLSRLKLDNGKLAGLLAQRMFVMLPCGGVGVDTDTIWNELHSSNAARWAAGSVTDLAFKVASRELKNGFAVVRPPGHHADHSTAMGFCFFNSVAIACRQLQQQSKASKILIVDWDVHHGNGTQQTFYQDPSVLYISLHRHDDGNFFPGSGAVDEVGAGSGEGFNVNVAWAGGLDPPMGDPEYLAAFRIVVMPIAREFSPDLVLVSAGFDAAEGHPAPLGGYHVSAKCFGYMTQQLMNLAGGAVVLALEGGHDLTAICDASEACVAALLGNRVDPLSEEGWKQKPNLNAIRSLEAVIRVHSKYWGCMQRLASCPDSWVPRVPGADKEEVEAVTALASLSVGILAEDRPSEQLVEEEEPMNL
# MKNK1: MAP kinase-interacting serine/threonine-protein kinase 1 (MKNK1, Homo sapiens, UniProt Q9BUB5)
Structure (SMILES),target,test,system,conditions,IC50
C#CCCn1nc(C)c2c(Cl)c(C(=O)NCC3CC(C)=NO3)cnc21 (stereo not drawn),"60 kDa heat shock protein, mitochondrial with HSP10",HSP60/10-mediated MDH refolding,,"30 min, preincubation before ATP, with: denatured malate dehydrogenase",> 100 µM
COC(=O)Cc1cc2c(cc1C(=O)c1cccc(I)c1)OCO2,Gria2/Glutamate receptor 3,"ion current, patch clamp",,,5.83 µM
COc1ccc(CNC(=O)c2cnc3c(c(C)nn3C)c2Cl)cc1,"60 kDa heat shock protein, mitochondrial with HSP10",ATPase activity,,"30 min, with: HSP10",> 250 µM
COc1cc2c(c(OC)c1OC)-c1c(cc(OC)c(OC)c1OC)C[C@H](C)[C@H](C)C2,CES1,"enzyme activity, inhibitor",,,4 µM
Cc1ccc(CN2C3(NC(c4ccc(C)cc4)C24C(=O)Nc2ccccc24)C(=O)Nc2ccccc23)cc1 (stereo not drawn),PIK3CA,"enzyme activity, inhibitor, ADP detection",,,0.817 µM
COC(=O)Cc1cc2c(cc1C(=O)c1ccccc1I)OCO2,Gria2/Glutamate receptor 3,"ion current, patch clamp",,,6.01 µM
O=C(CCNC(=O)CNC(=O)CC(c1ccccc1)(c1ccccc1)c1ccccc1)NCC1CCN(C(=O)c2ccc(F)cc2)CC1,"CHRM1 (Homo sapiens, UniProt P11229)","ligand displacement, radioligand",,cell membranes,> 30 µM
CCn1nc(Cl)c2c1-c1cnc(N)c(c1)O[C@H](C)c1cc(F)ccc1-c1nn(C)cc1C2,"PTK6 (Homo sapiens, UniProt Q13882)","enzyme activity, inhibitor, radiometric",,,0.235 µM
CCC(=O)N1CCC(NC(=O)Nc2cccc(OC(F)(F)F)c2)CC1,"Ephx2 (Mus musculus, UniProt P34914)","enzyme activity, inhibitor",,,≥ 10 µM
Cc1oc(C)c(-c2ccc(N(CC(C)C)CC(C)C)c(NC(=O)Nc3ccc4c(c3)B(O)OC4)c2)c1C(=O)O,IDO1,"enzyme activity, inhibitor, recombinant enzyme, refers to: kynurenine",,"20 min, 2% DMSO, with: L-tryptophan",27 ± 10 µM
CCC1C(COc2nccc3cc(C(N)=O)c(OC)cc23)NC(=O)C1F (stereo not drawn),"PIM1 (Homo sapiens, UniProt P11309)","enzyme activity, inhibitor, radiometric",,,> 10 µM
C#CCCn1nc(C)c2c(Cl)c(C(=O)NCC3CC(Br)=NO3)cnc21 (stereo not drawn),"60 kDa heat shock protein, mitochondrial with HSP10",HSP60/10-mediated MDH refolding,,"30 min, preincubation before ATP, with: denatured malate dehydrogenase",28 µM
Fc1ccc(Nc2nc(NC3CCCCC3)c3cc(Br)ccc3n2)cc1F,"ADRB2 (Homo sapiens, UniProt P07550, I159A)","β-arrestin2 recruitment, antagonist, BRET",HEK293,"mutant I159A, with: isoprenaline 1 µM",0.158 µM
Cc1oc(C)c(-c2ccc(N(CC(C)C)C3CCCCC3)c(NC(=O)Nc3cccc(B(O)O)c3)c2)c1C(=O)O,IDO1,"enzyme activity, inhibitor, recombinant enzyme, refers to: kynurenine",,"20 min, 2% DMSO, with: L-tryptophan",41 ± 4 µM
CCCCCCCCCCCCCCN(O)C(=O)CCCCC[C@@H]1NC(=O)[C@H]([C@@H](C)CC)NC(=O)[C@H](Cc2ccccc2C(F)(F)F)NC(=O)CCSCc2cccc(n2)CSCCCNC1=O,HDAC7,"enzyme activity, inhibitor, fluorogenic",,,> 30 µM
O=C(O)C(=O)N[C@H](Cc1ccc(O)cc1)C(=O)O,"KDM4E (Homo sapiens, UniProt B2RXH2)","enzyme activity, inhibitor",,,> 1000 µM
O=C1Nc2ccccc2C12NC(c1ccc(F)cc1)C1(C(=O)Nc3ccccc31)N2Cc1ccc(F)cc1 (stereo not drawn),PIK3CA,"enzyme activity, inhibitor, ADP detection",,,0.605 µM
Cc1cc(NC2CCN(C)CC2)ccc1-c1cc2c(N3CCC[C@H](C(=O)NCc4ccc(OC(F)(F)F)cc4)C3)ncnc2[nH]1,"MAPKAPK2 (Homo sapiens, UniProt P49137)","enzyme activity, inhibitor, mobility shift",,,> 8 µM
COC(=O)Cc1cc2c(cc1C(=O)c1ccc(Cl)cc1Cl)OCO2,Gria2/Glutamate receptor 3,"ion current, patch clamp",,,4.9 µM
O=C1CCC(N2C(=O)c3ccc(N4CC(C(=O)N5CC(CCN6CCC(CNC(=O)c7cccc(-c8noc(C(F)(F)F)n8)c7)(c7nc(-c8ccccc8)cs7)CC6)C5)C4)cc3C2=O)C(=O)N1 (stereo not drawn),HDAC7,"enzyme activity, inhibitor",,,0.31 µM
O=C(CCc1ccc(CNC(C(=O)O)C2CCCCC2)cn1)NO (stereo not drawn),HDAC7,"enzyme activity, inhibitor",,,> 10 µM
Cc1nn(-c2cccc(N)c2)c(=O)c2cnc(Nc3ccc(N4CCNCC4)cc3)nc12,MKNK1,"enzyme activity, inhibitor",,,> 10 µM
COC(=O)c1cccc(CN2CCC(Nc3nc(NCc4cccc(OC)c4)nc4[nH]cnc34)CC2)c1,"IPMK (Homo sapiens, UniProt Q8NFU5)","enzyme activity, inhibitor",,,12 µM
CC[C@H]1CN(C(c2cccc(C(F)(F)F)c2)c2nc(C(F)(F)F)nn2C)[C@H](CC)CN1c1nc(=O)n(C)c2ccc(C#N)nc12 (stereo partly drawn),"DGKZ (Homo sapiens, UniProt Q13574)","lipid kinase activity, inhibitor, ADP-Glo",,,0.004 µM
O=C(Nc1ccc(OC(F)(F)F)cc1)N1CCC(Cc2cccc(Oc3ccc(C(F)(F)F)cn3)c2)CC1,CES1,"enzyme activity, inhibitor",,,> 10 µM
CCCNCC(O)COc1ccccc1C(=O)CCc1ccccc1 (stereo not drawn),"PKD2L1 (Homo sapiens, UniProt Q9P0L9, F514A)",ion current,,,1.3 µM
C[C@H]1[C@@H](O)O[C@@H]2O[C@@]3(C)CC[C@H]4[C@H](C)CC[C@@H]1[C@@]24OO3,"BCL2 (Homo sapiens, UniProt P10415)","binding, inhibitor, fluorescence polarization",,with: labeled Bid-BH3 peptide,> 200 µM
NC(=O)c1ccc(C(=O)NOCc2ccc(Sc3cccc(Cl)c3)c(C(F)(F)F)c2)cc1,"Cytochrome P450 2A6 (CYP2A6, Homo sapiens, UniProt P11509)","enzyme activity, inhibitor",pooled human liver microsomes,,> 30 µM
O=C(O)Cc1cc2c(cc1C(=O)c1ccccc1I)OCO2,Gria2/Glutamate receptor 3,"ion current, antagonist, patch clamp",,,4.79 µM
O=C(Cc1ccc(OCc2ccccc2)cc1)NC1(C(=O)O)CCN(C(=O)c2ccc(-c3cccc(Cl)c3)cc2)CC1,"P2Y purinoceptor 12 (P2RY12, Homo sapiens, UniProt Q9H244)","antagonist, GloSensor cAMP",,,> 10 µM
CCN(CC)CC(=O)Nc1cccc(-n2cc(-c3ccc4ccc(-c5cn(-c6cccc(NC(=O)CN(CC)CC)c6)nn5)cc4c3)nn2)c1,MKNK1,"enzyme activity, inhibitor",,,> 10 µM
Cc1ccc(-c2c3c([nH]c(=O)c2C#N)C(CC(C)C)CCC3)cc1 (stereo not drawn),"PDE9A (Homo sapiens, UniProt O76083)","enzyme activity, inhibitor, radiometric",,,0.0199 µM
CN1CC[C@@H](COc2cnc(C#N)cc2-c2ccn3nc(NC(=O)C4CC4)cc3c2)C1,"SIK3 (Homo sapiens, UniProt Q9Y2K2)","enzyme activity, inhibitor",,,2.05 µM

# A few entries again:
Structure (SMILES),target,test,system,conditions,IC50
CCn1nc(Cl)c2c1-c1cnc(N)c(c1)O[C@H](C)c1cc(F)ccc1-c1nn(C)cc1C2,"PTK6 (Homo sapiens, UniProt Q13882)","enzyme activity, inhibitor, radiometric",,,0.235 µM
CCC(=O)N1CCC(NC(=O)Nc2cccc(OC(F)(F)F)c2)CC1,"Ephx2 (Mus musculus, UniProt P34914)","enzyme activity, inhibitor",,,≥ 10 µM
